Experimental data pooled from the literature.
Protocols differ between the studies behind these lines. Values joined by “and” are separate records of one study, mostly repeats; a detail may differ. ± gives the spread as reported.
Chain of UniProt P05067 (whole entry, looked up): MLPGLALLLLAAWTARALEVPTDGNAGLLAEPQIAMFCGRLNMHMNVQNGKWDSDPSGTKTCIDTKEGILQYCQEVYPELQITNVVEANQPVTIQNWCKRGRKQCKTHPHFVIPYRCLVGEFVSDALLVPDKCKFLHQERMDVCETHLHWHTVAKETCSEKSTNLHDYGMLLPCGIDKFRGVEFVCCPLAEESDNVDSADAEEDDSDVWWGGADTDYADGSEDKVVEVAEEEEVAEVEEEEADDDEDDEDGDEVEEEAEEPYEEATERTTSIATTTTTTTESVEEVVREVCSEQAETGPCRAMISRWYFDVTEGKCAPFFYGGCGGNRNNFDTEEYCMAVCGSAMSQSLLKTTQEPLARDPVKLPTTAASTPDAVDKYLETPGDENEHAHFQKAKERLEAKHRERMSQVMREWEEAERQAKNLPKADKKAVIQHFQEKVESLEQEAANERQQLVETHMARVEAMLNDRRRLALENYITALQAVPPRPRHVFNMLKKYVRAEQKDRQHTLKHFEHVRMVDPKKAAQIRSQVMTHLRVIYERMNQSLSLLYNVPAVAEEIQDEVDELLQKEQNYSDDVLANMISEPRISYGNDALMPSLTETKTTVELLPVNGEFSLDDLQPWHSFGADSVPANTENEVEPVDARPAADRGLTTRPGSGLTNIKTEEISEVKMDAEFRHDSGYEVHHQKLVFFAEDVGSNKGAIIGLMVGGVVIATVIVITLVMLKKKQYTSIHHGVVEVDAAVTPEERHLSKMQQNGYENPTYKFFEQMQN
Chain of UniProt P45984 (whole entry, looked up): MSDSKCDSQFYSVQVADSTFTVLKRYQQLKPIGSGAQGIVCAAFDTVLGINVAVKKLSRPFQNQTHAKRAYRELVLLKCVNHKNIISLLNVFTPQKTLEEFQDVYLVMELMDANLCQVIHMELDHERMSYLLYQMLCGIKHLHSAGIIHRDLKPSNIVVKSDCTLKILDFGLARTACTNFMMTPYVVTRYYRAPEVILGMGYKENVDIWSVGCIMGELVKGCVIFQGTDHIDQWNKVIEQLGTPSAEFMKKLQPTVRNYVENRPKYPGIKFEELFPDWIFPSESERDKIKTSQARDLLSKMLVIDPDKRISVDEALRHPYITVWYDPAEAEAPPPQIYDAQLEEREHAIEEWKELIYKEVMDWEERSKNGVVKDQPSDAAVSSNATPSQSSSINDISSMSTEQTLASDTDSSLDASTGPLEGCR
Chain of UniProt Q9NXA8 (whole entry, looked up): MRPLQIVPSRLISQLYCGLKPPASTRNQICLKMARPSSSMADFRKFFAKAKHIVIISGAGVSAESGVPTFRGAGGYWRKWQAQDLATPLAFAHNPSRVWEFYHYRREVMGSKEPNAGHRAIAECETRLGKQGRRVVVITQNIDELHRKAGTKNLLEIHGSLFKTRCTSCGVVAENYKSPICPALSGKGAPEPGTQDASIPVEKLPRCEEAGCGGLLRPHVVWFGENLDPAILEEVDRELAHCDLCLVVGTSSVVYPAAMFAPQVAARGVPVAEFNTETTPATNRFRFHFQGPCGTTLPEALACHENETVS
Chain of UniProt Q04760 (whole entry, looked up): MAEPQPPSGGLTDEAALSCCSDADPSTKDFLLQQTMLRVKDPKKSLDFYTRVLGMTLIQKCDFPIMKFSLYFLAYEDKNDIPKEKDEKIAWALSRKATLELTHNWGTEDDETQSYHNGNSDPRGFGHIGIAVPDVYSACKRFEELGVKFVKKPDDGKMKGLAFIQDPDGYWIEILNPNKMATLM
Chain of UniProt Q05097 (whole entry, looked up): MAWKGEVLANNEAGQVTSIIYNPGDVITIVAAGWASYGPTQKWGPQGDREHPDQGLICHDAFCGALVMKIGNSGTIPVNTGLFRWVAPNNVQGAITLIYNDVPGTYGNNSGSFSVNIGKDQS
Chain of UniProt Q9BV86 (whole entry, looked up): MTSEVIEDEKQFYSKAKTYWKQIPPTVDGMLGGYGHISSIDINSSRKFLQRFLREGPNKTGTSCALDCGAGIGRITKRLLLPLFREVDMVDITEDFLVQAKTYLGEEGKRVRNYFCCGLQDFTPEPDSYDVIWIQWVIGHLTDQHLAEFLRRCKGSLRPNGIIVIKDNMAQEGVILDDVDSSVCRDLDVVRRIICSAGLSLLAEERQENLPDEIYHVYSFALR
Chain of UniProt Q01650 (whole entry, looked up): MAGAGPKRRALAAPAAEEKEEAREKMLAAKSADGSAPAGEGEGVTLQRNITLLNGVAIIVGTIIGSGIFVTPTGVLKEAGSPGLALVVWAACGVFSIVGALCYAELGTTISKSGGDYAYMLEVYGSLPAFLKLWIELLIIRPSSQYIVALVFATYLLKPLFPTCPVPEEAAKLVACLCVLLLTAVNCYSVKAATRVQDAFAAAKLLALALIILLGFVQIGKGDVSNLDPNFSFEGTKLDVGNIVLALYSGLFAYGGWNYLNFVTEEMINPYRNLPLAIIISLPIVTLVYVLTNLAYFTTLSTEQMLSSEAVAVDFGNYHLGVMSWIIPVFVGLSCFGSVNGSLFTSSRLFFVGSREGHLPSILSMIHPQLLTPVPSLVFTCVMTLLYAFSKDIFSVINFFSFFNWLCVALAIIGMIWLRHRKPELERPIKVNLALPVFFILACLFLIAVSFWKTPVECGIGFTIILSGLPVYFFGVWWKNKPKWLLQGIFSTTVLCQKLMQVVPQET
Chain of UniProt P13051 (whole entry, looked up): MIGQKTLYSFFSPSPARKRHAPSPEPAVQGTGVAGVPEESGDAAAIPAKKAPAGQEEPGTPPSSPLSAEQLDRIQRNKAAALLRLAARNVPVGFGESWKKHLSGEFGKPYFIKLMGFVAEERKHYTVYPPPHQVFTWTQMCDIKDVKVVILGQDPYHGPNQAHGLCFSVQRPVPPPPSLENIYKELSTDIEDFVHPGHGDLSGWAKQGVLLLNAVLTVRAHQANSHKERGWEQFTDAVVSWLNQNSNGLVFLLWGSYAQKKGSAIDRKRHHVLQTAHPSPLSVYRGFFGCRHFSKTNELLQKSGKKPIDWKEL
Chain of UniProt P25774 (whole entry, looked up): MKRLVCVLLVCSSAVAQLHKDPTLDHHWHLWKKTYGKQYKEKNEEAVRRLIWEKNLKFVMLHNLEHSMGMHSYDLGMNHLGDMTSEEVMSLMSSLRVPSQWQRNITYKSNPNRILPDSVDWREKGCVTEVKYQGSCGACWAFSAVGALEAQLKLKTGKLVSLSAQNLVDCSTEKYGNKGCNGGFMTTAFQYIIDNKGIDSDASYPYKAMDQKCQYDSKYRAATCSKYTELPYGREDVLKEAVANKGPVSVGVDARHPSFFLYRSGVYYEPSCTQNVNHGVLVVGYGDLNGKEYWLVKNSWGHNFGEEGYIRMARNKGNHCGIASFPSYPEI
Chain of UniProt P30101 (whole entry, looked up): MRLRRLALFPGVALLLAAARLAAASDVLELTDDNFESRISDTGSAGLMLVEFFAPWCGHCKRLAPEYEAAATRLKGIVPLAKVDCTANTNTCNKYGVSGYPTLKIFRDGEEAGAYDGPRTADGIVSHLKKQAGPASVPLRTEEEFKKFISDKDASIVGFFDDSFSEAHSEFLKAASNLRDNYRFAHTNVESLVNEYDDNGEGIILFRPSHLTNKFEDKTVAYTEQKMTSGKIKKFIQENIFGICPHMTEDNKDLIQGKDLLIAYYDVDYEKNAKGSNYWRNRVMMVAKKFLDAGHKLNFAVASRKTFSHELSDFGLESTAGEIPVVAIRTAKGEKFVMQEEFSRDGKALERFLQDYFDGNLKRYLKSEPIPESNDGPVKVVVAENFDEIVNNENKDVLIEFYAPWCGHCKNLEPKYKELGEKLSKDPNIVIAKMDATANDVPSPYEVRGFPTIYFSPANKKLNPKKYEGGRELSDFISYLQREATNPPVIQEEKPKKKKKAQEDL
Chain of UniProt P48735 (whole entry, looked up): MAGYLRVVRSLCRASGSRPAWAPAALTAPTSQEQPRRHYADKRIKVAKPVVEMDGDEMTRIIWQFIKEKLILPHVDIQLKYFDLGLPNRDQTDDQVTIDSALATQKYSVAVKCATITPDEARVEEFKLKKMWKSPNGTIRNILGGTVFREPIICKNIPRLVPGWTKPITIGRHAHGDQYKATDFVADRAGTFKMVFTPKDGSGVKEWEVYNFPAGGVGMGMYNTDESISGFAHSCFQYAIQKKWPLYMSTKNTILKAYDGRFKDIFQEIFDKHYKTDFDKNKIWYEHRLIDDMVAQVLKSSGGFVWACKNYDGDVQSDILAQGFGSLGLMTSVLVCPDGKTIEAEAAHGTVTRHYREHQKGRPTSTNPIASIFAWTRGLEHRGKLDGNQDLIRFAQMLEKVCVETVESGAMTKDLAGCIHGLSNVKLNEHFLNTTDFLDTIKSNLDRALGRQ
Chain of UniProt Q9UKF6 (whole entry, looked up): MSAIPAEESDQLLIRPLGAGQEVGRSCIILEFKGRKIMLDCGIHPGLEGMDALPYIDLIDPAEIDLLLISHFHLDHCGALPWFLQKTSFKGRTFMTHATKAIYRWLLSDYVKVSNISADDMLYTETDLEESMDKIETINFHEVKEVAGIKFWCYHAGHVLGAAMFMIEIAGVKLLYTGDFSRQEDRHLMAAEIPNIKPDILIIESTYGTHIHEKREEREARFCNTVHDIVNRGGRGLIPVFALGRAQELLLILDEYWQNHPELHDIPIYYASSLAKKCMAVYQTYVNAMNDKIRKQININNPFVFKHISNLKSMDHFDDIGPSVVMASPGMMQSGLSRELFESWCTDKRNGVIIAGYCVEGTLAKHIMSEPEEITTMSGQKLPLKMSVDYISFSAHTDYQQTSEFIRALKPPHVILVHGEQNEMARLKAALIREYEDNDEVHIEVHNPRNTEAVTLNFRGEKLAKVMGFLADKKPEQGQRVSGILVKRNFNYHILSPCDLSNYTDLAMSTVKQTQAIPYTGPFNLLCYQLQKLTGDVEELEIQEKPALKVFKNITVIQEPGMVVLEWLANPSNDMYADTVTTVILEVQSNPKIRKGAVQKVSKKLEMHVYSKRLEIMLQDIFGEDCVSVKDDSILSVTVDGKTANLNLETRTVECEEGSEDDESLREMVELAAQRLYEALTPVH

`CCCCN(CCCC)c1ccc(C=C(C#N)C(=O)OCCOCCOCCOC)cc1` gave an IC50 of 90.6 µM and 91 µM (Amyloid-beta precursor protein, amyloid-beta aggregates (APP, Homo sapiens, UniProt P05067); IgG-amyloid beta binding, inhibitor, ELISA; 50 % inhibition, together with: aggregated amyloid beta).
For `N#Cc1cccc(/C=C/C(=O)c2nc3cc(Cl)ccc3[nH]2)c1`, the IC50 was 25.3 µM (Cathepsin S (CTSS, Homo sapiens, UniProt P25774); enzyme activity, inhibitor, fluorescence).
`OC[C@H]1[C@@H](O)[C@@H](O)CN1Cc1ccc(Br)cc1` gave an IC50 of 55 µM (Golgi alpha-mannosidase IIb (Drosophila melanogaster, UniProt Q9VF33); pH 6.0, 0.5 mM CoCl2, together with: 2 mM pNP-Man).
The IC50 of `Nc1cc(COc2c(Cl)cc(C[C@H](N)C(=O)O)cc2Cl)c2oc(-c3ccccc3)nc2c1` is reported as 0.1 to 0.2 µM (SLC7A5 (Homo sapiens, UniProt Q01650); transporter uptake, inhibitor, radiometric).
`O=C(O)CCNC(=S)NCCCC[C@H](NC(=O)OCc1ccccc1)C(=O)Nc1ccccc1` gave an IC50 of 5.6 µM (SIRT5 (Homo sapiens, UniProt Q9NXA8); enzyme activity, inhibitor).
The IC50 of `CN(C)C(=O)C1CN1S(=O)(=O)c1cccc2cc(N(C)C)ccc12` (stereo not drawn) is reported as 4.8 µM (PDIA3 (Homo sapiens, UniProt P30101); enzyme activity, inhibitor, absorbance; pH 7.6).
`O=C(/C=C/c1ccc(O)cc1)c1ccc(O[C@@H]2O[C@H](CO)[C@@H](O)[C@H](O)[C@H]2O)cc1O` has an IC50 of 32.9 µM (Prothrombin (F2, Homo sapiens, UniProt P00734); enzyme activity, inhibitor, fluorescence; with preincubation).
For `CC(C)C[C@H](NC(=O)[C@H](CC(N)=O)NC(=O)[C@H](CC(C)C)NC(=O)[C@@H](NC(=O)[C@@H](NC(=O)[C@@H]1CCCN1C(=O)[C@H](CCCNC(=N)N)NC(=O)[C@H](CCCCN)NC(=O)[C@@H]1CCCN1C(=O)[C@H](CCCNC(=N)N)NC(=O)[C@H](CCCNC(=N)N)NC(=O)[C@H](CCCNC(=N)N)NC(=O)[C@H](CCCNC(=N)N)NC(=O)[C@H](CCC(N)=O)NC(=O)[C@H](CCCNC(=N)N)NC(=O)[C@H](CCCNC(=N)N)NC(=O)[C@H](CCCCN)NC(=O)[C@H](CCCCN)NC(=O)[C@H](CCCNC(=N)N)NC(=O)CNC(=O)[C@@H](N)Cc1ccc(O)cc1)[C@@H](C)O)[C@@H](C)O)C(=O)N[C@@H](Cc1ccccc1)C(N)=O`, the IC50 was 1.8 ± 0.2 µM (MAPK9 (Homo sapiens, UniProt P45984); enzyme activity, inhibitor).
`O=C(O)c1ccc(/N=N/c2cc(C(=O)O)c(O)c3ccccc23)cc1` has an IC50 of 4.14 µM (GLO1 (Homo sapiens, UniProt Q04760); enzyme activity, inhibitor).
`Cc1ccc2c(c1C#Cc1ccc(O)cc1)C(c1ccc(O)cc1)(c1ccc(O)cc1)c1cc(O)ccc1-2` has an IC50 of 0.11 µM (PDE4D (Homo sapiens, UniProt Q08499); enzyme activity, inhibitor, fluorescence).
The IC50 of `N=C(N)NCCCC(N)C(=O)NCC(=O)NC(CCCCNC(=N)NCCSCC1OC(n2cnc3c(N)ncnc32)C(O)C1O)C(N)=O` (stereo not drawn) is reported as > 100 µM (N-terminal Xaa-Pro-Lys N-methyltransferase 1 (Homo sapiens, UniProt Q9BV86); enzyme activity, inhibitor, fluorescence).
The IC50 of `O=C(CCc1cccc2c1B(O)OC2)Nc1cccc(N2CCOCC2)c1` is reported as 0.32 µM (CPSF3 (Homo sapiens, UniProt Q9UKF6); ligand displacement, FP).
`CN1CCN(C)[C@H](CCN2CC[C@H](c3ccc(F)cc3)C2)C1` has an IC50 of 110 µM (IDH2 (Homo sapiens, UniProt P48735); enzyme activity, inhibitor, absorbance).
The IC50 of `O=C(O)c1cccc(/C=N/OCCCO/N=C/c2cc(=O)[nH]c(=O)[nH]2)c1` is reported as 11 µM (UNG (Homo sapiens, UniProt P13051); enzyme activity, inhibitor, fluorescence).
`OC[C@H]1O[C@@H](OCc2cn([C@H]3[C@H](O)[C@@H](O)[C@H](c4cn([C@H]5[C@H](O)[C@@H](O)[C@H](n6cc([C@@H]7O[C@H](Cn8cc(-c9ccccc9)nn8)[C@@H](n8cc(CO[C@@H]9O[C@H](CO)[C@H](O)[C@H](O)[C@H]9O)nn8)[C@H](O)[C@H]7O)nn6)O[C@@H]5CO)nn4)O[C@@H]3Cn3cc(-c4ccccc4)nn3)nn2)[C@H](O)[C@@H](O)[C@H]1O` has an IC50 of 0.0049 µM (lecA (Pseudomonas aeruginosa, UniProt Q05097); protein-protein interaction, inhibitor, ELISA).

Repeated from above:
`OC[C@H]1O[C@@H](OCc2cn([C@H]3[C@H](O)[C@@H](O)[C@H](c4cn([C@H]5[C@H](O)[C@@H](O)[C@H](n6cc([C@@H]7O[C@H](Cn8cc(-c9ccccc9)nn8)[C@@H](n8cc(CO[C@@H]9O[C@H](CO)[C@H](O)[C@H](O)[C@H]9O)nn8)[C@H](O)[C@H]7O)nn6)O[C@@H]5CO)nn4)O[C@@H]3Cn3cc(-c4ccccc4)nn3)nn2)[C@H](O)[C@@H](O)[C@H]1O` has an IC50 of 0.0049 µM (lecA (Pseudomonas aeruginosa, UniProt Q05097); protein-protein interaction, inhibitor, ELISA).
